Measured values gathered from unrelated publications.
Each line is one published result; not all experiments were run side by side. Numbers after ± are the reported error.
cyp121: Mycocyclosin synthase (cyp121, Mycobacterium tuberculosis, UniProt P9WPP7)

By UniProt entry, the sequences of proteins in these tests, tags left out. Where a name states a change or a piece, a line headed by the entry shows the natural chain unless it says otherwise. Residues count along the entry.
UniProt P9WPP7, whole entry: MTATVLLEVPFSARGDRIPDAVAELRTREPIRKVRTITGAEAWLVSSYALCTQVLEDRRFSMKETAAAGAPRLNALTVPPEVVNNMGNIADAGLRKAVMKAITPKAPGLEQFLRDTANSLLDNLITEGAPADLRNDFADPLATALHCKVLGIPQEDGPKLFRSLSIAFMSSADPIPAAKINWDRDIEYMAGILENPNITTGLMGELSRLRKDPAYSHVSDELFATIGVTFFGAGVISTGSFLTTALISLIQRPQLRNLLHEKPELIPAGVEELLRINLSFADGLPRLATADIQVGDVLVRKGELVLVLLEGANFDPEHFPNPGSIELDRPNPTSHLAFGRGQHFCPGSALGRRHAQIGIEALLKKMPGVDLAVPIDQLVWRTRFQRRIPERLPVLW
UniProt P06802, 92-905 isoform 2 limits assumed: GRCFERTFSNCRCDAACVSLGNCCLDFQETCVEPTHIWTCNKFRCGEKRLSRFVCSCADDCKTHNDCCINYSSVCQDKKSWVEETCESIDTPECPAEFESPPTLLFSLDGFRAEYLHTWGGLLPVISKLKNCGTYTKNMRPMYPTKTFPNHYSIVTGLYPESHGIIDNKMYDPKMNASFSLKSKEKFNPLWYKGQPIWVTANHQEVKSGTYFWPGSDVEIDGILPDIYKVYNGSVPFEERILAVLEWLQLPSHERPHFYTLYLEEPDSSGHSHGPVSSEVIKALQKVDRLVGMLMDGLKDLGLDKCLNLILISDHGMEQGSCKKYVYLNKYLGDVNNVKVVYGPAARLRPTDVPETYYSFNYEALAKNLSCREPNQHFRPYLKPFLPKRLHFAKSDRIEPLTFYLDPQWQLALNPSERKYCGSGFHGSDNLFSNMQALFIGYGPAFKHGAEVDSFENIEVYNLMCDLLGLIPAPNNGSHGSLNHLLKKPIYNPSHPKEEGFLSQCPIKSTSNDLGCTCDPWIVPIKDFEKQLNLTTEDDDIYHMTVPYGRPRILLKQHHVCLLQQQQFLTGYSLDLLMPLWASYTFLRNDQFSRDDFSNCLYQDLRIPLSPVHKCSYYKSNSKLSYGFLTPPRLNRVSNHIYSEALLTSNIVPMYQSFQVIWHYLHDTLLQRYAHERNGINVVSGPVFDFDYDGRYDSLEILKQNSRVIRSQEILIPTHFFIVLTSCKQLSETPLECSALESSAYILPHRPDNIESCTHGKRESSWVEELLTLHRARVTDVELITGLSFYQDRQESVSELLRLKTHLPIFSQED
UniProt O15245, whole entry G465R: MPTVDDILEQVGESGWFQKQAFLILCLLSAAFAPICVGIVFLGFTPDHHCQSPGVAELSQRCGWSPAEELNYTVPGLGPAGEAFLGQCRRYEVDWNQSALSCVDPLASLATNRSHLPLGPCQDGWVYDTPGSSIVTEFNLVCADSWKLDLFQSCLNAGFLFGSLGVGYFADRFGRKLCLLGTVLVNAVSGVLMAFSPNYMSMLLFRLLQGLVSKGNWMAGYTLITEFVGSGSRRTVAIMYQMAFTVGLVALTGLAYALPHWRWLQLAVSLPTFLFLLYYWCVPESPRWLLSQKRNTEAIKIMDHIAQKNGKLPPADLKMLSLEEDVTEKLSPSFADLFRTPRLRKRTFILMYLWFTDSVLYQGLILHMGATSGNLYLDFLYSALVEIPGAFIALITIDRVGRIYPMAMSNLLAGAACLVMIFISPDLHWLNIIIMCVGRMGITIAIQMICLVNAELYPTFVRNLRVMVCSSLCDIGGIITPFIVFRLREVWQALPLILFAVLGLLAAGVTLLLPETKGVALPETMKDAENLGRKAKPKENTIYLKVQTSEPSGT
UniProt P35372, whole entry: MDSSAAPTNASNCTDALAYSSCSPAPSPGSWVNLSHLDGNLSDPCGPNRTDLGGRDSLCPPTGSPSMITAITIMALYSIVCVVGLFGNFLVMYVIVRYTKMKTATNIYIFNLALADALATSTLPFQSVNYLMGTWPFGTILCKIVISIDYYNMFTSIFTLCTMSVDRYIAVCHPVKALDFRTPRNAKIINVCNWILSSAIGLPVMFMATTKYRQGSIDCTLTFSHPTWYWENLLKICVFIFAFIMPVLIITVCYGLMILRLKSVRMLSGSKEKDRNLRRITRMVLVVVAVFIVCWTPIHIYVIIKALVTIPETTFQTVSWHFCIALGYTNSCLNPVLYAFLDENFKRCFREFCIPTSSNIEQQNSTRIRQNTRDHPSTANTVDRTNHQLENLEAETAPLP
UniProt P07948, whole entry Y508F, looked up: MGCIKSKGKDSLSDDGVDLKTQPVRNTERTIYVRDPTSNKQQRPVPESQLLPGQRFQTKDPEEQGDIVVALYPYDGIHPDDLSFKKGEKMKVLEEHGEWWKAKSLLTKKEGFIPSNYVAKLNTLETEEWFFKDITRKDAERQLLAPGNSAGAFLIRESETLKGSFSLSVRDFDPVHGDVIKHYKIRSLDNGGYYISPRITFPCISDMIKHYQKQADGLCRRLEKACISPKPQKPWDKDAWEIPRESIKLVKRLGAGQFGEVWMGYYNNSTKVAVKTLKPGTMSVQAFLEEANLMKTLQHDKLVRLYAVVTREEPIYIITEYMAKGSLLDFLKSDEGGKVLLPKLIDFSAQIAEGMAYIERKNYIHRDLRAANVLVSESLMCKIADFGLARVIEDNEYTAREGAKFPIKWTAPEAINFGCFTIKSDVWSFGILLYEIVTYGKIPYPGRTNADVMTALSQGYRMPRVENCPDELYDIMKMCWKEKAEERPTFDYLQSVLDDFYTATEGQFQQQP
UniProt P18089, whole entry: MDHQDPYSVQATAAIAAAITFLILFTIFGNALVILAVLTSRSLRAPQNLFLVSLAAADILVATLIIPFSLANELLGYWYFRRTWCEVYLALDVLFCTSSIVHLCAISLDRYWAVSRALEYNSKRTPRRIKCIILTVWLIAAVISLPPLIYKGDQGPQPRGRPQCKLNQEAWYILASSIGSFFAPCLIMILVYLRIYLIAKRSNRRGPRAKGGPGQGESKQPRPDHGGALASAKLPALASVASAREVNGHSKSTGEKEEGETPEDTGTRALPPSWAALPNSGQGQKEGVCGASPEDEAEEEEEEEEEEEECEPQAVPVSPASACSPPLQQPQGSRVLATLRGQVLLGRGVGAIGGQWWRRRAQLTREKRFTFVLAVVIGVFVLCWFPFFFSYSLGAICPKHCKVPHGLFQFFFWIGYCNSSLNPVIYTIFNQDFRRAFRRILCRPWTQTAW
UniProt P06241, whole entry, looked up, stated change not applied: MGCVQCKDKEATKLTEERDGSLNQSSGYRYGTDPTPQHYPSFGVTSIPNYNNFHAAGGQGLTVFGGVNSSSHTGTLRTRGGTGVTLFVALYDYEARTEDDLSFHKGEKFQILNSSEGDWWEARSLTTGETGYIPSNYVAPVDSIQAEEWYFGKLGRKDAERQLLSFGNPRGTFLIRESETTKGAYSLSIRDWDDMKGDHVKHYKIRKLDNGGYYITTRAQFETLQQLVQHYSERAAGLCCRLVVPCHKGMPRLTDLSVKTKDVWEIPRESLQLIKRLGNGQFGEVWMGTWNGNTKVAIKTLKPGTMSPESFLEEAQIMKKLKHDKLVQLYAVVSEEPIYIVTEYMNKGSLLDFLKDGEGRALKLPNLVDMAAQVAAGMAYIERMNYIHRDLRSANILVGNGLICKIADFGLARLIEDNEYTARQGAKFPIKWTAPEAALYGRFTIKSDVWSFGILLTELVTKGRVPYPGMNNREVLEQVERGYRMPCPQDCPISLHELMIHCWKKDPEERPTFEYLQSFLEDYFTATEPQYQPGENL
UniProt P08312, whole entry: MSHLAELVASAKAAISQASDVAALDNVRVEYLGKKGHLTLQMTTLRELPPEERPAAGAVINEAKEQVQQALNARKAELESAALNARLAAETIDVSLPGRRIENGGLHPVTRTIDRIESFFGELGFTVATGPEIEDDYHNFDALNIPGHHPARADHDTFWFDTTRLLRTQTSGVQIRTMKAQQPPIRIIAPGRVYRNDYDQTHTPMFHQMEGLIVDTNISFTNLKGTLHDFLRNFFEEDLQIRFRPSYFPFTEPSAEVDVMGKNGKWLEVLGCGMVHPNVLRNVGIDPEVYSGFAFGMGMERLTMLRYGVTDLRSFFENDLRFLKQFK
UniProt P07395, whole entry partner: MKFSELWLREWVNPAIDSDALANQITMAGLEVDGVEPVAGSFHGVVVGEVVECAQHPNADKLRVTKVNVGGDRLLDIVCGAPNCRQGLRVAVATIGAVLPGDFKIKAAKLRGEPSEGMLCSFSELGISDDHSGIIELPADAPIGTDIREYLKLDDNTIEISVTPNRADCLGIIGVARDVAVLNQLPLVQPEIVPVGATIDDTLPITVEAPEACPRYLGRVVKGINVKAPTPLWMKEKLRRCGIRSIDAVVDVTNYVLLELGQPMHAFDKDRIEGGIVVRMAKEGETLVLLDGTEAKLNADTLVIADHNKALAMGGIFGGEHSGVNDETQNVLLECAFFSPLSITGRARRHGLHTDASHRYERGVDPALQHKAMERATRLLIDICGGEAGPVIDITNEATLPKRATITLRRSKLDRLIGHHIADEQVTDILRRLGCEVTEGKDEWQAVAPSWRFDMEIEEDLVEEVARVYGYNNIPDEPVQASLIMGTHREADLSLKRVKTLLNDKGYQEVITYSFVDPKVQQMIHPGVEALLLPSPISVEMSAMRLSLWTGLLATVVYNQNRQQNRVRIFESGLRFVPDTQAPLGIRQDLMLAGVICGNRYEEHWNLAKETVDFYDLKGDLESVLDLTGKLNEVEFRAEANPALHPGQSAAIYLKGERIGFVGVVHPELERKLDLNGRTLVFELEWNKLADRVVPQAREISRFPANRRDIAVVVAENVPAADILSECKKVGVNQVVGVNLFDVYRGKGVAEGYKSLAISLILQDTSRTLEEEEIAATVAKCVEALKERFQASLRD

COc1cccc2c(N3CCC(CCP(=O)(O)O)CC3)ncnc12
Ki (Enpp1 (Mus musculus, UniProt P06802); enzyme activity, inhibitor, coupled luciferase AMP detection; pH 7.4, with: cGAMP 5 µM): < 2 nM

Cc1ccccc1S(=O)(=O)Nc1cccc(C(=O)NC2CCN(c3ncnc4[nH]cnc34)CC2)c1
viability (A549-ACE2; 0.09145 µM): 105%

C[C@@H](Cc1ccc(O)cc1)NC[C@@H](O)c1cc(O)cc(O)c1
Kd (SLC22A1 (Homo sapiens, UniProt O15245, G465R); binding, frontal displacement chromatography; immobilized SLC22A1 column; with: [3H]MPP+ marker): 6350 nM

NC[C@@H](NC[C@@H]1CCCN1C[C@@H](CO)NC[C@@H](NCCC1CC2CCC1C2)c1ccccc1)c1ccccc1 (stereo partly shown)
IC90 (Acinetobacter baumannii; bacterial growth; compound alone): > 24000 nM

COC(=O)[C@@H]1C=C(OC(=O)c2ccc(O)c(Br)c2)C(=O)[C@H]2[C@@]1(C)CC[C@H]1C(=O)O[C@H](c3ccoc3)C[C@]21C
EC50 (OPRM1 (Homo sapiens, UniProt P35372); forskolin-induced cAMP inhibition, agonist; CHO-K1 expressing human MOR): 17 ± 7 nM

CC(C)n1nc(-c2ccc3c(c2)OCO3)c2c(N)ncnc21
Ki (LYN (Homo sapiens, UniProt P07948, Y508F); inhibitor): 180 nM

O=c1ccn([C@@H]2O[C@H](COP(=O)(O)OP(=O)(O)OP(=O)(O)O)[C@@H](O)[C@]2(F)Br)c(=O)[nH]1
IC50 (Genome polyprotein, NS5B polymerase (Hepatitis C virus genotype 2a, UniProt Q99IB8); polymerase activity, inhibitor; Hepatitis C virus, genotype 2a): 1200 nM

C=CC(c1ccc(-c2ccc3cc(OC)ccc3c2)cc1)n1ccnc1 (single isomer, unassigned)
Kd (cyp121; enantiomer E2): 700 nM

COc1ccc(CN[C@@H]2CO[C@H](C(c3ccccc3)c3ccccc3)C[C@H]2O)cc1
inhibition (ADRA2B (Homo sapiens, UniProt P18089); radioligand binding; 10 µM, with: [3H]clonidine): 28.5%

CCC(c1ccc(-c2ccc(OC)cc2)c2cccnc12)n1ccnc1 (stereo not shown)
Kd (cyp121; binding): 2500 ± 700 nM

Nc1ncnc2c1c(-c1cnc3[nH]ccc3c1)nn2C1CCCC1
Ki (FYN (Homo sapiens, UniProt P06241, S254P/T250P/T253P); inhibitor): 5.8 nM

CCC(c1ccc(-c2ccc3cc(OC)ccc3c2)cc1)n1ccnc1 (stereo not shown)
Kd (cyp121; racemate): 500 nM

C1=C(CCNCc2ccccc2)CCCC1
IC50 (pheS, with beta subunit (Escherichia coli, UniProt P08312); phenylalanine activation, inhibitor): 3.5 µg/mL

Oc1cccc(-c2ccc(Cn3ccnc3)cc2)c1
Kd (cyp121; binding): 34000 ± 8900 nM

O=C(NC1CCN(c2ncnc3[nH]cnc23)CC1)c1cccc(NS(=O)(=O)c2ccc([N+](=O)[O-])cc2)c1
viability (A549-ACE2; 22.22 µM): 98%

CCCCCCCCCCCCNC(=O)N[C@H](C(=O)N[C@H]1/C=C/CCNC(=O)/C=C/[C@H](C)NC1=O)C(C)C
Ki (PSMB7 (Homo sapiens, UniProt Q99436); trypsin-like activity, inhibitor, Proteasome-Glo; U-266; 24 h): 170 ± 47.9 nM

Some of these lines once more:
O=c1ccn([C@@H]2O[C@H](COP(=O)(O)OP(=O)(O)OP(=O)(O)O)[C@@H](O)[C@]2(F)Br)c(=O)[nH]1
IC50 (Genome polyprotein, NS5B polymerase (Hepatitis C virus genotype 2a, UniProt Q99IB8); polymerase activity, inhibitor; Hepatitis C virus, genotype 2a): 1200 nM

C=CC(c1ccc(-c2ccc3cc(OC)ccc3c2)cc1)n1ccnc1 (single isomer, unassigned)
Kd (cyp121; enantiomer E2): 700 nM
